Experimental data collected from several papers.
Parts stem from different laboratories: compare values within a part only. Substitutions count along the parent as printed.

Block 1
Target: CCNA1, cyclin fold, Cln2 fusion (human)
Technique: yeast growth competition, sequencing
Sample: yeast
Setting: weak parent motif
Baseline: not given
Reading: higher = stronger binding
Parent: ORC1 docking peptide (human); PRARKRLELGNLG
| Substitution | normalised enrichment score |
| --- | --- |
| PRARKYLELGNLG [R6Y] | 0.402 |
| PRARKRLELGNHG [L12H] | 0.662 |
| PRARKRLELENLG [G10E] | 0.381 |
| PRARKRLELGNYG [L12Y] | 0.416 |
| QRARKRLELGNLG [P1Q] | 0.635 |
| SRARKRLELGNLG [P1S] | 0.187 |
| PRAKKRLELGNLG [R4K] | 0.151 |
| PRARKRLMLGNLG [E8M] | 0.217 |

Block 2
Target: Sal-like protein 4, full length isoform A (SALL4, Homo sapiens, UniProt Q9UJQ4, residues 1-1053)
Sequence of UniProt Q9UJQ4 (whole entry, looked up): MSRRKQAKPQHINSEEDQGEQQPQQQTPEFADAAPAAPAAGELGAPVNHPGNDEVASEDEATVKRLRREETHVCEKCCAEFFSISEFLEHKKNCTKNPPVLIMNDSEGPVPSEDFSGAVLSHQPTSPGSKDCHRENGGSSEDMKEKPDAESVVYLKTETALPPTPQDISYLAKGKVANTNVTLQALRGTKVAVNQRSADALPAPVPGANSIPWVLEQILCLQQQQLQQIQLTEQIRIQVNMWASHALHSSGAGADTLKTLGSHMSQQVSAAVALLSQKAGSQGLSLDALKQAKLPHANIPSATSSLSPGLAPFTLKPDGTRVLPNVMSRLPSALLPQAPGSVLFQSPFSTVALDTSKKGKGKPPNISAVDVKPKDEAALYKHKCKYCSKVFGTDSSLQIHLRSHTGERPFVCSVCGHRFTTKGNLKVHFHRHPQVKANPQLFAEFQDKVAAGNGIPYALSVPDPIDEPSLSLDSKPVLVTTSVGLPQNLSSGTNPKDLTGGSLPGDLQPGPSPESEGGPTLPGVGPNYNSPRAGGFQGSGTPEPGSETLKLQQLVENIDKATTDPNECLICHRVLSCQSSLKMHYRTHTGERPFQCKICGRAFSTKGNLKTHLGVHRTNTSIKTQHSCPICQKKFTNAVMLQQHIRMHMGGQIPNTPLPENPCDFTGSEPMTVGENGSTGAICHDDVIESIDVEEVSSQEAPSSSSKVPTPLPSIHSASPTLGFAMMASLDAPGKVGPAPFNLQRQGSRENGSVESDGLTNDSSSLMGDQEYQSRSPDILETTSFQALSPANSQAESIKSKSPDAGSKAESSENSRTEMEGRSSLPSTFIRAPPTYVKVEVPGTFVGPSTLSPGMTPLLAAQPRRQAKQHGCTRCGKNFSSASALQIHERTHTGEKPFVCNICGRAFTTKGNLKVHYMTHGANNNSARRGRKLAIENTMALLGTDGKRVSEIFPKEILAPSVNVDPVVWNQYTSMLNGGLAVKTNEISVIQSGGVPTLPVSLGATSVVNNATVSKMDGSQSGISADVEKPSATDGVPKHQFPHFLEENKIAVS
Technique: universal PBM
Form: double-stranded DNA, one strand shown
Sample: in vitro
Tested at: 600 nM
Setting: 8-mer, flanks averaged, mean of replicates
Reading: higher = stronger binding
| Sequence | E-score |
| --- | --- |
| ATAGTTAC | 0.264 |
| AAAGTACT | 0.101 |
| CCACCTCA | -0.185 |
| ACATCAGA | 0.123 |
| CGCTTTTC | -0.0232 |
| GCGTGTCC | -0.326 |

Block 3
Target: ABI1, truncated, D143A, DHFR fusion (Arabidopsis thaliana)
Technique: DHFR PCA, deep sequencing
Sample: yeast
Setting: methotrexate growth selection, single substitutions
With: (+)-ABA 0.032 µM
Baseline: wild-type fitted maximum
Reading: higher = stronger binding
Parent: PYL1, truncated, DHFR fusion (Arabidopsis thaliana); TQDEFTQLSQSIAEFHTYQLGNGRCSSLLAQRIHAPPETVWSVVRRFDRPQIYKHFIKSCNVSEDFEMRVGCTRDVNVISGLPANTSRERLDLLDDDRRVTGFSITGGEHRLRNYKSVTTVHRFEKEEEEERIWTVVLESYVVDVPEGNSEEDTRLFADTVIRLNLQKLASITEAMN
| Substitution | relative binding score [%] |
| --- | --- |
| T6W | 21.5 |
| F124R | -0.247 |
| Q51P | -8.26 |
| I52K | 2.18 |
| Q2E | 34 |
| Q167N | 0.745 |

Single results of other studies
| Substance | target | test | system | conditions | scale | endpoint | result |
| --- | --- | --- | --- | --- | --- | --- | --- |
| PhoQ, residues 284 288 289 292 302 303 SVTLVV | PhoP, residues 12 14 15 18 19 AGCRL (Escherichia coli, UniProt P23836) | Sort-seq, item: YFP reporter | E. coli | PhoQ-PhoP variant library, with: 10 µM Mg2+ | baseline: high Mg2+ state, higher = stronger signaling | fold induction | 1.22 |

Some of these lines once more (block 3):
| Substitution | relative binding score [%] |
| --- | --- |
| T6W | 21.5 |
| F124R | -0.247 |
